{"data": "Experimental data from different studies", "note": "Lines come from different studies, so protocols differ. ± marks the error that the study gave.", "sequence of UniProt Q12809 (whole entry, looked up)": "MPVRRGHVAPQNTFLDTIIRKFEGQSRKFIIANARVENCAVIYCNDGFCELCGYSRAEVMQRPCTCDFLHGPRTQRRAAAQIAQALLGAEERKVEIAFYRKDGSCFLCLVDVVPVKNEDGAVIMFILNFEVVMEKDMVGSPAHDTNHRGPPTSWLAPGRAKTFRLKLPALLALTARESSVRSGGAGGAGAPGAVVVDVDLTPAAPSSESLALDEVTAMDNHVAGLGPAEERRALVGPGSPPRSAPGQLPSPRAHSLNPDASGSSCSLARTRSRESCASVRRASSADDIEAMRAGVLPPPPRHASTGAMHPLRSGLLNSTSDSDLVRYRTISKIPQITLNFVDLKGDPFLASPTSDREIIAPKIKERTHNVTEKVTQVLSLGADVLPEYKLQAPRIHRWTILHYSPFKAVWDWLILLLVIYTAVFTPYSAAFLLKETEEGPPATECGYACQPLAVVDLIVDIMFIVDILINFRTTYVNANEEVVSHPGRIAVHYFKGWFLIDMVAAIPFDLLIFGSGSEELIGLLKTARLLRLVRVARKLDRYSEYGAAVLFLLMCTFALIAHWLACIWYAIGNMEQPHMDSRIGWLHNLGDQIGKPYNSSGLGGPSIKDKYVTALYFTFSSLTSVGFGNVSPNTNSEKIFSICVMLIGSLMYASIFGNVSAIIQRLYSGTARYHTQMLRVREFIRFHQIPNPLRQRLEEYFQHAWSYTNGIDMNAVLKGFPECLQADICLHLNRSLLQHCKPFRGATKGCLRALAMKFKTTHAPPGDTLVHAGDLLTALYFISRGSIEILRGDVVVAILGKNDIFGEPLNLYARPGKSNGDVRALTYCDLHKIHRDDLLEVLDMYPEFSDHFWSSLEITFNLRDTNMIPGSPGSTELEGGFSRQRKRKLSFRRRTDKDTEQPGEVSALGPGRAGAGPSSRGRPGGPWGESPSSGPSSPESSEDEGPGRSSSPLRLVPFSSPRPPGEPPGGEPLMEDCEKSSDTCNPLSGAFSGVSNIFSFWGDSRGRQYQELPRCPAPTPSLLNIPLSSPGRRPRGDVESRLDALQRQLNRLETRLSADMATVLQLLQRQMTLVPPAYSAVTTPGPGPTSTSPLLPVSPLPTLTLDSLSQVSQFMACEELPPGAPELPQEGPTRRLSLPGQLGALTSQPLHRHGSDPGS"}
{"Structure (SMILES)": "CC[C@H](C)[C@H](NC(=O)[C@@H](NC(=O)[C@H](CCCCN)NC(=O)[C@H](CC(=O)O)NC(=O)[C@H](CCCCN)NC(=O)[C@H](Cc1ccccc1)NC(=O)[C@H](Cc1ccccc1)NC(=O)[C@H](CO)NC(=O)[C@H](CCCCN)NC(=O)[C@H](CCSC)NC(=O)[C@H](CCCCN)NC(=O)[C@H](CCCCN)NC(=O)[C@H](Cc1c[nH]c2ccccc12)NC(=O)[C@@H](N)Cc1ccccc1)C(C)C)C(=O)N1CCC[C@H]1C(=O)N[C@@H](CCCCN)C(=O)N[C@H](C(=O)N[C@@H](CCC(N)=O)C(=O)N[C@@H](CCC(N)=O)C(=O)N[C@@H](C)C(=O)N[C@@H](Cc1ccc(O)cc1)C(=O)N[C@@H](CO)C(=O)N[C@@H](CC(C)C)C(=O)N[C@@H](Cc1ccc(O)cc1)C(=O)N[C@@H](CC(N)=O)C(=O)N[C@@H](CCCCN)C(=O)N[C@@H](CC(C)C)C(=O)N[C@@H](CCC(N)=O)C(=O)N[C@@H](Cc1c[nH]cn1)C(=O)N[C@@H](CCCCN)C(=O)N[C@@H](CC(C)C)C(N)=O)C(C)C", "target or system": "HEK293T", "test": "WST-8", "setting": "up to 25 µg/mL, 24 h", "how to read": "relative to: water", "measurement": "viability", "result": "no effect"}
{"Structure (SMILES)": "CN(C)CC1CCCCC1(O)c1cccc(O)c1 (centres unmarked)", "test system": "Caco-2", "setting": "10 µM, 3 h, pH 6.8", "measurement": "Papp B→A", "result": "12 ×10⁻⁶ cm/s"}
{"Structure (SMILES)": "CC[C@H](C)C(=O)N1CCC(NC(=O)Nc2ccc(OC(F)(F)F)c(F)c2)CC1", "test system": "human, plasma", "setting": "oral, 2 mg, single dose, healthy volunteers", "measurement": "AUC", "result": "119 ng·h/mL"}
{"Structure (SMILES)": "CC(C)[C@H](NC(=O)CNC(=O)[C@H](CCC(N)=O)NC(=O)[C@H](C)N)C(=O)O", "test system": "human", "setting": "single dose, 1 mg/kg", "measurement": "possibly related adverse events", "result": "16.7%"}
{"Structure (SMILES)": "CN[C@](C)(C[18F])C(=O)O", "target or system": "MDA-MB-468 tumour model", "test system": "host not given, lung", "setting": "30 min, tumour-bearing", "measurement": "tracer uptake", "result": "2.3 %ID/g"}
{"Structure (SMILES)": "COC(=O)CCCC1C2CCCN3CCCC(CN1Cc1ccc(Cl)c(Cl)c1)C23 (centres unmarked)", "target or system": "HEK293T", "measurement": "CC50", "result": "> 200 µM"}
{"Structure (SMILES)": "N[C@]1(c2ccccc2Cl)CCC[C@H](O)C1=O", "test system": "Wistar rat, plasma", "setting": "intravenous, 20 mg/kg", "measurement": "AUC(0-t)", "result": "29000 ± 6160 ng·h/mL"}
{"Structure (SMILES)": "COc1ccc(CNc2nc(N3CCC[C@H]3CO)ncc2C(=O)NN)cc1Cl", "target or system": "Salmonella typhimurium", "test system": "TA97a", "setting": "62.5 µg/plate, 48 h, with: rat liver S9", "measurement": "revertant count", "result": "194 ± 16"}
{"Structure (SMILES)": "O=C(O)CCC(NP(=O)(O)OCCC[C@@H](NC(=O)CCC(NC(=O)CCCCCNC(=O)c1ccc([18F])cc1)C(=O)O)C(=O)O)C(=O)O (some centres unmarked)", "target or system": "PC-3 tumour model", "test system": "host not given, liver", "setting": "intravenous, 2 h, tumour-bearing", "measurement": "tracer uptake", "result": "0.28 %ID/g"}
{"Structure (SMILES)": "N=C(N)c1ccc(-c2ccc(-c3ccco3)o2)nc1", "target or system": "Salmonella typhimurium", "test": "mutagenicity, Ames test", "test system": "TA1535", "setting": "10 or 20 µM, 48 h, pH 7.4, higher tested concentration, with: rat liver S9 mix", "measurement": "revertant colonies", "result": "16.7 ± 1.9 colonies/plate"}
{"Structure (SMILES)": "O=C(O)CCC(NP(=O)(O)OCCC[C@@H](NC(=O)CCC(NC(=O)c1ccc([18F])cc1)C(=O)O)C(=O)O)C(=O)O (some centres unmarked)", "target or system": "PC-3 tumour model", "test system": "host not given, tumour", "setting": "intravenous, 2 h, tumour-bearing", "measurement": "tracer uptake", "result": "0.4 %ID/g"}
{"Structure (SMILES)": "CC[C@H](C)[C@H](NC(=O)[C@H](CC(=O)O)NC(=O)[C@@H](NC(=O)[C@@H]1CCCN1C(=O)[C@@H](N)CCCNC(=N)N)[C@@H](C)O)C(=O)N[C@@H](CCCCN)C(=O)N[C@H]1CSSC[C@@H]2NC(=O)[C@H](CCCNC(=N)N)NC(=O)CNC(=O)[C@H](CC(N)=O)NC(=O)[C@H]([C@@H](C)O)NC(=O)[C@H](CCCCN)NC(=O)CNC(=O)[C@H](Cc3ccccc3)NC(=O)[C@H](CCCNC(=N)N)NC(=O)[C@H](CO)NC(=O)[C@H](CCCCN)NC(=O)[C@@H]3CSSC[C@@H](C(=O)N[C@@H](Cc4ccccc4)C(=O)O)NC(=O)[C@H](CC(=O)O)NC(=O)[C@H](CSSC[C@H](NC(=O)[C@H](CCC(N)=O)NC(=O)[C@H](Cc4ccc(O)cc4)NC(=O)[C@H](CO)NC(=O)[C@H](CCC(=O)O)NC(=O)[C@H](CO)NC1=O)C(=O)N[C@@H](Cc1ccccc1)C(=O)N1CCC[C@H]1C(=O)N[C@@H](C(C)C)C(=O)N3)NC(=O)[C@H](Cc1ccccc1)NC(=O)CNC(=O)[C@H](CC(N)=O)NC(=O)[C@H](C(C)C)NC2=O", "target or system": "Voltage-gated inwardly rectifying potassium channel KCNH2 (KCNH2, Homo sapiens, UniProt Q12809)", "test": "ion current, two-electrode voltage clamp", "test system": "Xenopus laevis oocytes", "measurement": "Hill coefficient", "result": "0.9 ± 0.1"}
{"Structure (SMILES)": "O=C(O)CCC(NP(=O)(O)OCCC[C@@H](NC(=O)CCC(NC(=O)CCCCCNC(=O)CCCCCNC(=O)c1ccc([18F])cc1)C(=O)O)C(=O)O)C(=O)O (some centres unmarked)", "target or system": "CWR22Rv1 tumour model", "test system": "host not given, bone", "setting": "intravenous, 1 h, tumour-bearing", "measurement": "tracer uptake", "result": "0.45 %ID/g"}
{"Structure (SMILES)": "COc1cc(C(=O)NCCOCCOCCOCCNC(=O)c2ccc([18F])nc2)ccc1NC(=O)C1NC(CC(C)(C)C)C(C#N)(c2ccc(Cl)cc2F)C1c1cccc(Cl)c1F (centres unmarked)", "target or system": "HepG2 tumour model", "test system": "host not given, kidney", "setting": "30 min, tumour-bearing", "measurement": "tracer uptake", "result": "15 %ID/g"}
